Measured values gathered from unrelated publications.
Each line is one published result; not all experiments were run side by side. Several values in a cell are separate wells, animals, samples, runs or records. ± gives the spread as reported.

SMILES | assay | system | setting | Cmin
C[C@H](CCC(=O)NCCS(=O)(=O)O)[C@H]1CC[C@H]2[C@@H]3CC[C@@H]4C[C@H](OS(=O)(=O)O)CC[C@]4(C)[C@H]3CC[C@]12C | – | human, plasma | baseline | 58.1 ± 12.2 nM
CCCCOCCOc1ccc(-c2ccc3c(c2)/C=C(/C(=O)Nc2ccc([S@@+]([O-])Cc4cncn4CCC)cc2)CCCN3CC(C)C)cc1 | – | human, matched controls (moderate impairment), plasma | oral, 150 mg, day 1 | 64.2 ng/mL
C[C@H](CCC(=O)O)[C@H]1CC[C@H]2[C@@H]3[C@H](O)C[C@@H]4C[C@H](O)CC[C@]4(C)[C@H]3CC[C@]12C | – | human, plasma | endogenous baseline diurnal | 86.3 ± 24.4 nM
CCOc1c([C@H](C)n2nc(C)c3c(N)ncnc32)cc(Cl)c(F)c1[C@@H]1CNC(=O)C1 | – | human patients, all cohorts, plasma | oral, 20 mg, day 15, monotherapy | 214 nM
C[C@H](CCC(=O)O)[C@H]1CC[C@H]2[C@@H]3CC[C@@H]4C[C@H](OS(=O)(=O)O)CC[C@]4(C)[C@H]3CC[C@]12C | – | human, plasma | baseline | 276 ± 16 nM
Cc1cc(/C=C/C#N)cc(C)c1Nc1ccnc(Nc2ccc(C#N)cc2)n1 | – | human, normal renal function, plasma | oral, dose not given, steady state, fixed-dose combination | 60 ng/mL
CCc1cc2c(cc1N1CCC(N3CCOCC3)CC1)C(C)(C)c1[nH]c3cc(C#N)ccc3c1C2=O | LC-MS | human, plasma | oral, 600 mg twice daily, cycle 1 day 15 | 1060 ng/mL
O=C(O)CCCCCCCCCCCCCCCCC(=O)O | – | human, plasma | control | 53 ± 3.7 nM
CCN(CCO)CCCC(C)Nc1ccnc2cc(Cl)ccc12 (stereo not drawn) | – | human patient, whole blood | oral, 400 mg, steady state | 835 ng/mL and 1020 ng/mL and 682 ng/mL and 814 ng/mL and 1010 ng/mL and 1180 ng/mL and 895 ng/mL
C[C@@H]1CCO[C@H]2Cn3cc(C(=O)NCc4ccc(F)cc4F)c(=O)c(O)c3C(=O)N12 | – | human, haemodialysis patients, plasma | oral, dose not given, steady state, fixed-dose combination | 1000 ng/mL
O=C(O)CCCCCCCCCCC(=O)O | – | human, plasma | endogenous baseline diurnal | 18.1 ± 2.6 nM
Fc1ccc([C@@H]2CCNC[C@H]2COc2ccc3c(c2)OCO3)cc1 | – | human, CYP2D6 intermediate metabolizers, plasma | oral, 20 mg, steady state | 21 ng/mL
Cn1cc(-c2cn3nccc3c(-c3cnn([C@]4(CC#N)C[C@@H](C#N)C4)c3)n2)cn1 | – | healthy humans fed, plasma | 400 mg once daily, day 10, geometric mean | 24.8 ng/mL
O=C(O)CCC(=O)O.[2H]C([2H])([2H])Oc1cc(C)c2[nH]ccc2c1CN1CC[C@@H](C2CC2)C[C@H]1c1ccc(C(=O)O)cc1 | – | human, plasma | 100 mg twice daily, day 10, multiple ascending dose, geometric mean | 3000 ng/mL
Cc1ncnc2c1ccn2[C@@H]1C[C@H](Oc2cc(C(F)F)c(F)c3c2CNCC3)[C@@H](O)[C@H]1O | – | human, plasma | 8 mg once daily | 44.4 ng/mL and 21.6 ng/mL

Repeated from above:
SMILES | assay | system | setting | Cmin
O=C(O)CCC(=O)O.[2H]C([2H])([2H])Oc1cc(C)c2[nH]ccc2c1CN1CC[C@@H](C2CC2)C[C@H]1c1ccc(C(=O)O)cc1 | – | human, plasma | 100 mg twice daily, day 10, multiple ascending dose, geometric mean | 3000 ng/mL
